Assay results collected from several papers.
Each numbered part is a random draw from the data of one study; scales do not carry over between parts.

Set 1 — technique: protein binding microarray; molecule type: double-stranded DNA, one strand shown; sample: in vitro; tested at: not given; reference: not given; reading: higher = stronger binding
Target: Histone acetyltransferase KAT6A, winged helix 1, GST fusion (KAT6A, Homo sapiens, UniProt Q92794, residues 1-85)
Setting: 8-mer, flanks averaged, mean of 2 arrays, mostly near background
Residues (chain): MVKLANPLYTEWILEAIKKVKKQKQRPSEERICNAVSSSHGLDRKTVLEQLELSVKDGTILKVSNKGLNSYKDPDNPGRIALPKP
Strand | E-score
CCGCCTAG | 0.237
GCCTACCA | 0.0695
AGCGTCCG | 0.231
ACGTTACC | 0.0715
ACGTCGCG | 0.235

Set 2 — technique: protein-binding microarray; molecule type: double-stranded DNA, one strand shown; sample: in vitro; tested at: not given; reading: higher = stronger binding
Target: Max-binding protein MNT, bHLH-zipper, MAX partner unstated (MNT, Homo sapiens, UniProt Q99583, residues 220-300)
Setting: k-mer, scored over probes, only values ≥0.25
Target sequence (chain): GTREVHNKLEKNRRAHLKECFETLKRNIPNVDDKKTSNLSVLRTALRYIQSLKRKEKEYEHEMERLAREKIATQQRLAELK
Strand | E-score
CGTGCACA | 0.355
CGCCACCC | 0.348
CATGCTCC | 0.357
ACCGCATG | 0.447

Set 3 — technique: aptamer microarray, sandwich; molecule type: DNA with 2'F-ANA; sample: in vitro; tested at: 200 nM; with: Cy3 exosite-II aptamer, 400 nM; reading: higher = stronger binding; strand: GGTTGGTGTGGTTGG
Target: Prothrombin, mature alpha-thrombin (F2, Homo sapiens, UniProt P00734)
Setting: whole 15-mer aptamer, many near background
Modification | mean fluorescence intensity [a.u.]
2'F-ANA at 3 4 5 7 9 10 13 15 | 58.4
2'F-ANA at 3 4 5 8 9 10 11 13 | 56.2
2'F-ANA at 2 3 4 5 7 9 10 11 12 13 | 57.5
2'F-ANA at 5 7 8 9 13 14 15 | 51.4
2'F-ANA at 1 2 3 6 7 11 13 14 | 67.4
2'F-ANA at 7 11 13 15 | 512

Mixed results
Substance | target | assay | test system | setting | how to read | measurement | result
PhoQ, residues 284 288 289 292 302 303 SMMNNA | PhoP, residues 12 14 15 18 19 TQAML (Escherichia coli, UniProt P23836) | Sort-seq, item: YFP reporter | E. coli | PhoQ-PhoP variant library, with: 10 µM Mg2+ | reference: high Mg2+ state, higher = stronger signaling | fold induction | 21.2

Repeated from above (set 3):
Modification | mean fluorescence intensity [a.u.]
2'F-ANA at 3 4 5 7 9 10 13 15 | 58.4
